# Measurements from different studies.
# Chains of the proteins cited; added tags and fusions are not shown. Residues count along the entry.
# UniProt P53779, 1-422 isoform 2: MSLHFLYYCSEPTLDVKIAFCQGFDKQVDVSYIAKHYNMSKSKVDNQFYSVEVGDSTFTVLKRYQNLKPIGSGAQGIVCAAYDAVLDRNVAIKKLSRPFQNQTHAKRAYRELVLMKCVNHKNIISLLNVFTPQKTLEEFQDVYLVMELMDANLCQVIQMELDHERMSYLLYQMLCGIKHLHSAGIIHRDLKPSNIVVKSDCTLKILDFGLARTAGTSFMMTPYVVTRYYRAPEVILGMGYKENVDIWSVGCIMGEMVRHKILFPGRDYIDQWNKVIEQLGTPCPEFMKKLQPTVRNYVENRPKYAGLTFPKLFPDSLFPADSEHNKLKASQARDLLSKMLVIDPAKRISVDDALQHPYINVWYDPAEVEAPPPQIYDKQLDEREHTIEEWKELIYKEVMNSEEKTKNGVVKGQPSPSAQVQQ
# Compare with care: the assays were run in different laboratories. ± gives the spread as reported.
Structure (SMILES),target or system,test,system,setting,how to read,quantity,result
CCOc1cc(C(C)(C)C)ccc1C1=N[C@H](c2ccc(Cl)cc2)[C@H](c2ccc(Cl)cc2)N1C(=O)N1CCN(CC(=O)NCCOCCOCCOCCNC(=O)CN2CCN(C(=O)N3C(c4ccc(C(C)(C)C)cc4OCC)=N[C@H](c4ccc(Cl)cc4)[C@@H]3c3ccc(Cl)cc3)CC2=O)C(=O)C1,HCT-116 p53 knock-out,"cell growth, CCK-8",,,,IC50,> 50000 nM
CN(C)C(=O)Cn1cc(-c2ccc(-c3cncc4ccncc34)cc2)cn1,OCI-Ly3,"cell growth, viability",,,,IC50,< 1000 nM
CC[C@@H](C)[C@H](N)C(=O)N1Cc2ccc(F)cc2C1,THP-1,"cell viability, CellTiter-Glo",,,,IC50,500 nM
COC(=O)[C@@]1(C)C=C(C(=O)Nc2cccc(C(=O)NC34CC(Nc5nccc(-c6cccnc6)n5)(C3)C4)c2)C(=O)CC1,"Mitogen-activated protein kinase 10 (MAPK10, Homo sapiens, UniProt P53779)","enzyme activity, inhibitor",,0.0007527 µM,,remaining activity,1.04 fraction of control
COc1cccc2c1C(=O)N1CCc3c([nH]c4ccccc34)C1N2Cc1ccc(C(=O)NCCCC(=O)NO)cc1 (racemic),A549,"cell viability, CCK-8",,,,IC50,> 10000 nM
Cc1ncsc1-c1ccc([C@H](C)NC(=O)[C@@H]2C[C@@H](O)CN2C(=O)[C@@H](NC(=O)CCCCCCC(=O)N2CCN(C[C@]3(C)CCC(c4ccc(Cl)cc4)=C(CN4CCN(c5ccc(C(=O)NS(=O)(=O)c6ccc(N[C@H](CCN7CCOCC7)CSc7ccccc7)c(S(=O)(=O)C(F)(F)F)c6)cc5)CC4)C3)CC2)C(C)(C)C)cc1,,refers to: SASP and necroptosis markers,"STAM mice NASH-HCC model, liver","dose not given, day 150, treated days 90-150",,mRNA level,decreased
CCOC(=O)COC(=O)[C@@H]1C(C=O)=Cc2cc3c(cc2[C@H]1c1cc(OC)c(OC)c(OC)c1)OCO3,Leishmania infantum,Alamar Blue,HepG2,,baseline: CC50 HepG2 over EC50 amastigotes,selectivity index,2.4
NS(=O)(=O)c1ccc(Oc2c(-c3cccc(-c4ccccc4)c3)nn(-c3nc(C(=O)O)cs3)c2C2CC2)cc1,HEK293T,lactate production,,1 h,,IC50,2600 nM
C=CC(=O)Nc1ccc(-n2nc3c(=O)[nH]nc(N)c3c2-c2oc3ccc(C)cc3c2C)cc1N(C)CCN(C)C,SNU-16 (FGFR2 amplified),cell proliferation,,,,IC50,12.2 ± 3.9 nM
CC(=NN=c1[nH]c2cc(F)c(F)cc2n1C)c1ccc(F)cn1,MDA-MB-231,"viability, MTT",,72 h,,IC50,75 nM
"C=CC(=O)N1CCC(c2cc(Nc3cc4n(n3)CCOC4)c3ncnn3c2)C1 (single isomer, unassigned)",Ramos,"calcium flux, FLIPR",,"2 h preincubation, with: anti-IgM",,IC50,> 1000 nM
Cc1cnc(Nc2ccc(N3CCN(C)CC3)cc2)nc1Nc1cccc(NS(=O)(=O)C(C)(C)C)c1,MM1.S,"cell growth, CellTiter Blue",,72 h,,IC50,380 nM
CN1c2ccc(F)cc2C(=O)N2CCc3c([nH]c4ccc(OCc5cccc(C(=O)NO)c5)cc34)C21 (stereo not shown),MCF7,"cell viability, CCK-8",,,,IC50,> 20000 nM
CC(C)[C@H](N)c1nc2cc(-c3cc[nH]c3)sc2c(=O)[nH]1,COLO 205,"cell growth, MTT",,,,IC50,> 10000 nM
NS(=O)(=O)c1ccc(Cc2c(-c3ccc(F)c(C#CC4CC4)c3)nn(-c3nc(C(=O)O)cs3)c2CC2CC2)cc1F,HEK293T,lactate production,,1 h,,IC50,600 nM
COc1cc(N)c2ncccc2c1Cl,HUVEC,"cell proliferation, [3H]thymidine incorporation",,,,IC50,> 20000 nM
CC(C)[C@H](N)c1nc2cc(-c3cnoc3)sc2c(=O)[nH]1,COLO 205,"cell growth, MTT",,,,IC50,> 10000 nM
O=C(O)c1ccc(Cl)c(N2C(=O)c3ccc4c5c(ccc(c35)C2=O)C(=O)N(c2cc(C(=O)O)ccc2Cl)C4=O)c1,PC-12,neurite outgrowth,,"72 h, with: 500 pM NGF",,IC50,16900 nM
CCOC(=O)C1=C(C)NC2=C(C(=O)CC(C)(C)C2)C1c1ccc(OCC(=O)NN=Cc2cccc(C=O)c2)cc1OCC(=O)NN=Cc1cccc(C=O)c1 (stereo not shown),Klebsiella pneumoniae,,EMCS,"concentration not given, 24 h",,inhibition zone diameter,3 ± 0.3 mm
COC(=O)[C@@H]1C(c2nc3ccccc3o2)=Cc2cc3c(cc2[C@H]1c1cc(OC)c(OC)c(OC)c1)OCO3,Leishmania,,mouse splenocytes,,baseline: CC50 over amastigote EC50,selectivity index,> 22.2
O=C(O)c1csc(-n2nc(-c3ccccc3)cc2C(F)(F)F)n1,HEK293T,lactate production,,1 h,,IC50,> 50000 nM
Nc1ccc(Cl)c2cccnc12,HUVEC,"cell proliferation, [3H]thymidine incorporation",,,,IC50,721 ± 300 nM

# A few entries again:
Structure (SMILES),target or system,test,system,setting,how to read,quantity,result
CN1c2ccc(F)cc2C(=O)N2CCc3c([nH]c4ccc(OCc5cccc(C(=O)NO)c5)cc34)C21 (stereo not shown),MCF7,"cell viability, CCK-8",,,,IC50,> 20000 nM
Cc1cnc(Nc2ccc(N3CCN(C)CC3)cc2)nc1Nc1cccc(NS(=O)(=O)C(C)(C)C)c1,MM1.S,"cell growth, CellTiter Blue",,72 h,,IC50,380 nM
